Assay results collected from several papers.
A part holds a random share of what one study measured.

Block 1 — technique: protein-binding microarray; form: double-stranded DNA, one strand shown; medium: in vitro; concentration: 2200 nM top; notes: 60-bp whole probe; added: salmon DNA 0.4 mg/ml; reference: random background probes; reading: higher = stronger binding; quantity: fitted relative affinity; shared flanks, not repeated: GCCTAGCAC … GTCTTGATTCGCTTGACGCTGCTG
Target: Interferon regulatory factor 7, full length, phosphomimetic (IRF7, Homo sapiens, UniProt Q92985, residues 1-503, S471D/S472D/S475D/S476D/S477D/S483D/S484D/S487D)
Target sequence (chain): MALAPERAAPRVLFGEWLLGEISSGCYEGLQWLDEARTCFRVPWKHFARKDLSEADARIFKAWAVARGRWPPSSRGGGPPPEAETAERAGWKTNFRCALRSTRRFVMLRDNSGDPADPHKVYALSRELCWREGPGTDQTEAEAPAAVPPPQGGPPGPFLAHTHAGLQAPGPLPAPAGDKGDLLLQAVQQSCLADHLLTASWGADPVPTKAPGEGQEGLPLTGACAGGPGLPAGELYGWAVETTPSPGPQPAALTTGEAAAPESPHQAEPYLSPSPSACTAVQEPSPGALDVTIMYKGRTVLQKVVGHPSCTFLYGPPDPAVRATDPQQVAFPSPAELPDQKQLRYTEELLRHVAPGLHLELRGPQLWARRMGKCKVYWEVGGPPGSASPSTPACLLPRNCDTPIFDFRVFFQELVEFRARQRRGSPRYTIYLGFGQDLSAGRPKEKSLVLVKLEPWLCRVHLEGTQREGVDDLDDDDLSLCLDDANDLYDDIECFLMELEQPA
Strand = TTAGATTTCAGTATCGTTTAGTGCTAG; value = 1.17 z-score
Strand = TTAGGTTTCCTTTTGCTTTAGTGCTAG; value = 5.3 z-score
Strand = GATGGTCTCGGACTGGGGACGTGCTAG; value = -0.469 z-score
Strand = GACGATATCAGACTCGAGACGTGCTAG; value = 0.19 z-score
Strand = CCTTTTATGGTATTTTTTTCGTGCTAG; value = 2.21 z-score
Strand = CACGGTATCGGTCTCGGGACGTGCTAG; value = 0.158 z-score
Strand = TTAGATCTCAGTCTCGAGTAGTGCTAG; value = 0.118 z-score
Strand = TCACCTGTCCATTCCTTACTGTGCTAG; value = 2.73 z-score
Strand = TTAGATATCGGGTTTCCATTAGTGCTA; value = 1.17 z-score
Strand = GACGTTTTCGGGTATCGGGACGTGCTA; value = 5.77 z-score
Strand = TTAGGTTTTCTTTCCCTTTAGTGCTAG; value = 3.73 z-score
Strand = ATATCTAAAAAGTCTCTGGGAGTGCTA; value = -0.663 z-score
Strand = TTAGGCTTCCTTTTCCTTTAGTGCTAG; value = 1.74 z-score
Strand = CCATTTTGGTTTTCTCTATTGGTGCTA; value = 3.37 z-score
Strand = ACCGCATTCGAATTCAGAATGTGCTAG; value = 2.47 z-score
Strand = GACGGTTTCCTACTGCTAACGTGCTAG; value = 1.88 z-score
Strand = TTAGGACTGGGGACAGGGTTAGTGCTA; value = -0.8 z-score
Strand = TTAGGTCTTCTTTTCCTTTAGTGCTAG; value = 1.75 z-score
Strand = GACGAACTGAGCATCGAGACGTGCTAG; value = -0.0955 z-score
Strand = TTAGATTTCAGGTTCGATTAGTGCTAG; value = 2.01 z-score
Strand = TTAGAACTGAGTTTCTATTAGTGCTAG; value = 0.817 z-score
Strand = TCATGCATGTTTTTGACACTGTGCTAG; value = 1.14 z-score
Strand = GACGAACTGAGTTTCGAGACGTGCTAG; value = 2.06 z-score
Strand = GACGATATCCTTCTCCTGACGTGCTAG; value = 1.35 z-score

Block 2 — technique: protein binding microarray; form: double-stranded DNA, one strand shown; medium: in vitro; concentration: not given; reference: not given; reading: higher = stronger binding; quantity: E-score
Target: Histone acetyltransferase KAT6A, winged helix 2, GST fusion (KAT6A, Homo sapiens, UniProt Q92794, residues 85-181)
Notes: 8-mer, flanks averaged, mean of 2 arrays, mostly near background
Construct (chain): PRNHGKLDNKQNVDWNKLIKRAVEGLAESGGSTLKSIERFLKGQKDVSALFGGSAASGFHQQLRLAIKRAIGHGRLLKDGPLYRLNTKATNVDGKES
Strand = ATCGTAGC; value = -0.0825
Strand = GAATCCAA; value = -0.0429
Strand = AATATACA; value = -0.0572
Strand = ACTGAAAT; value = 0.00411
Strand = CAGACGAC; value = -0.133
Strand = AACTATCA; value = -0.0451
Strand = GTAGCGAA; value = -0.0465
Strand = GCGTGCGA; value = 0.113
Strand = TACGCAAA; value = -0.0186
Strand = ACTGATGA; value = -0.174
Strand = CATACACC; value = -0.0114
Strand = CCGCAAAG; value = 0.152
Strand = CATACGGG; value = -0.0673
Strand = GGGATGAC; value = -0.105
Strand = CAGGACGA; value = -0.0433
Strand = AGACCGCG; value = 0.215
Strand = TACTCCCA; value = 0.0683
Strand = CCGTACGC; value = 0.0141
Strand = ATTTGAGC; value = -0.012
Strand = GAACGAAA; value = -0.0676
Strand = CTTGGGAA; value = 0.0929
Strand = CATATCGC; value = -0.0153
Strand = CCCAATAC; value = 0.0754
Strand = AGCTACCG; value = -0.00888
Strand = TGGTGAAA; value = 0.0208

Block 3 — technique: RNA Bind-n-Seq; form: RNA; medium: in vitro; concentration: 365 nM; reference: no-protein control; reading: higher = stronger binding; quantity: RBNS enrichment (R)
Target: RNA binding protein fox-1 homolog 2, RRM domain, GST-SBP tag (RBFOX2, Homo sapiens, UniProt O43251-10, residues 100-194)
Notes: natural RNA segment, single round, ends assumed
Shared flanks, not repeated: GGGAGUUCUACAGUCCGACGAUC … UGGAAUUCUCGGGUGCCAA
Target sequence (chain): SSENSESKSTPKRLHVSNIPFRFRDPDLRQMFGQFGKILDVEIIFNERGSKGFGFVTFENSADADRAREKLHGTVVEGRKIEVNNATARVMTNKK
Strand = AAAAAAAGCCUUAGUGGCCUGGUUGUUCAAAGGAUAAGAAUAGCUUUAUCCUGCACUCAGUACCCGAACUCACUUCAGUAUGCUUACUGAGGCCAUGAGAACCUGAGGGG; value = 0.351
Strand = AAGAAUGCUGCUUUUUAUUCUCCUAACCCUUUCAAGUGGGUGCAGACUUCUCGUUAGCAGCUGGAAGACAUUCCUCCCACACUUUUCCCUUCCUGGCCCAAGAGAGCAUC; value = 0.617
Strand = CCCAAAAUUGUGAUUAUUAAAAAUAUAGUUAAUUGUGAUUAGCCUCCAGUGAAAAUAGGUUGAAAGCCUGUUUUGAUCCAGUGUUUUCUCCCAAAGAACUCUACGUUAAA; value = 0.83
Strand = CAUGGUGGCGGCGAAGAAGAGAAAGAUGUGUUUUGUUUUGGACUCUCUGUGGUCCCUUCCAAUGCUGUGGGUUUCCAACCAGGGGAAGGGUCCCUUUUGCAUUGCCAAGU; value = 1.68
Strand = UAAGUAUGAUGCAAAAUGAGAGGUAGGAUGUGUAGCAGGAUUCCAAAUUUUAGCUUAAUUGUCUUUGACAAUGGACUAUUUGGAGAAAUGAAUGAAUAGGUUGUGGCUGU; value = 2.6
Strand = GACUGUCUUGCGGCUCCUCUAUAGGAAAGAGUACUGAUGCCUGUCCGGCCCCGGUUCCCCUCAGGUCCCUGUGCUCUGGUCAUUGCAGUGAUGGCUCACUCAGACUGUCC; value = 0.294
Strand = CACUGAACAUUCAUCAGGGAACUUUCCUCAAGUCUAACUGCUGUGUUUGUGAGAAGAGCAGAAUCACGGAGACGCAAUCCUGACCACUGACUACAAGAGGAGCAACCCAG; value = 0.619
Strand = CUCCAAUUUUCUGUGCCAUUUUAAAUUUAACUUUGACAUCCAGCUAUAGACAGAAAUAAUAAGCCACCCUGGGUGUAAACUUGAUUUUCUUUAUUGAGAUGUAUCAUGUA; value = 0.983
Strand = CUUGUAAGUUUGUCUUUACUCCUAAUUGCUAAAUUAACUGAAACCCUUCCUGUCUAGGGAGAAUUGCUGCUAGUAAGGUCAGUUUGCAAUGUUCAGCUUUAGAUAUGUGU; value = 0.644
Strand = GCUGACCCUGUCACAACCUCCCAGCACAGCUUUGGAAUGAGACAUCAGCCUGGCCUCCAGCAGAGCAGAGGCUCUGGAGCUCCACAUCCUGCCUGCAGGGAGCCCUCAGG; value = 1.42
Strand = AUUCUUGUAGAAGGCAGUUUCCUCUACUUGCCCAAGAGCACUGAGUACUUCUCUACUAUCCUAUUAUUAGCUUCUAUCUCUUAGUGUAACUUCAAAACUUUUAAGAGCAG; value = 0.358
Strand = AUUAGUACAUCAUUUUCUCUGGAUUUUCUUCACUUCCCUCUUCCUUUCUACUAACUCCUUCCUUAAAGGCCAUAUCACUCCAUUUGCAUUAUUUGUGCAAAUGCCAGGGU; value = 0.541

Block 4 — technique: aptamer microarray, sandwich; form: DNA with 2'F-ANA; medium: in vitro; concentration: 200 nM; added: Cy3 exosite-II aptamer, 400 nM; reading: higher = stronger binding; quantity: mean fluorescence intensity; strand: GGTTGGTGTGGTTGG
Target: Prothrombin, mature alpha-thrombin (F2, Homo sapiens, UniProt P00734)
Notes: whole 15-mer aptamer, many near background
Modification = 2'F-ANA at 1 2 5 6 7 11 12 14; value = 45.6 a.u.
Modification = 2'F-ANA at 1 6 8 12; value = 454 a.u.
Modification = 2'F-ANA at 1 2 3 5 7 9 10 12 13; value = 61.2 a.u.
Modification = 2'F-ANA at 2 3 4 6 8 9 13 14; value = 211 a.u.
Modification = 2'F-ANA at 1 2 5 8 9 11 12 13 14; value = 46 a.u.
Modification = 2'F-ANA at 3 6 7 11; value = 983 a.u.
Modification = 2'F-ANA at 1 3 7 8 9 11 14; value = 100 a.u.
Modification = 2'F-ANA at 3 4 5 7 8 12 13; value = 172 a.u.
Modification = 2'F-ANA at 1 2 4 6 7 8 10 14; value = 45.6 a.u.
Modification = 2'F-ANA at 2 3 5 7 9 10 11 12 13 14 15; value = 52 a.u.
Modification = 2'F-ANA at 1 2 3 4 13 14 15; value = 59.2 a.u.
Modification = 2'F-ANA at 3 6 7 9 11 13; value = 741 a.u.
Modification = 2'F-ANA at 4 7 12 13 14; value = 125 a.u.
Modification = 2'F-ANA at 4 5 6 8 12; value = 167 a.u.
Modification = 2'F-ANA at 2 3 4 5 8 11 12 13 14 15; value = 57.8 a.u.
Modification = 2'F-ANA at 1 2 5 7 8 10 14; value = 44.8 a.u.

Block 5 — technique: universal PBM; form: double-stranded DNA, one strand shown; medium: in vitro; concentration: 600 nM; reading: higher = stronger binding; quantity: E-score
Target: Sal-like protein 4, full length isoform A (SALL4, Homo sapiens, UniProt Q9UJQ4, residues 1-1053)
UniProt Q9UJQ4, sequence (whole entry, looked up): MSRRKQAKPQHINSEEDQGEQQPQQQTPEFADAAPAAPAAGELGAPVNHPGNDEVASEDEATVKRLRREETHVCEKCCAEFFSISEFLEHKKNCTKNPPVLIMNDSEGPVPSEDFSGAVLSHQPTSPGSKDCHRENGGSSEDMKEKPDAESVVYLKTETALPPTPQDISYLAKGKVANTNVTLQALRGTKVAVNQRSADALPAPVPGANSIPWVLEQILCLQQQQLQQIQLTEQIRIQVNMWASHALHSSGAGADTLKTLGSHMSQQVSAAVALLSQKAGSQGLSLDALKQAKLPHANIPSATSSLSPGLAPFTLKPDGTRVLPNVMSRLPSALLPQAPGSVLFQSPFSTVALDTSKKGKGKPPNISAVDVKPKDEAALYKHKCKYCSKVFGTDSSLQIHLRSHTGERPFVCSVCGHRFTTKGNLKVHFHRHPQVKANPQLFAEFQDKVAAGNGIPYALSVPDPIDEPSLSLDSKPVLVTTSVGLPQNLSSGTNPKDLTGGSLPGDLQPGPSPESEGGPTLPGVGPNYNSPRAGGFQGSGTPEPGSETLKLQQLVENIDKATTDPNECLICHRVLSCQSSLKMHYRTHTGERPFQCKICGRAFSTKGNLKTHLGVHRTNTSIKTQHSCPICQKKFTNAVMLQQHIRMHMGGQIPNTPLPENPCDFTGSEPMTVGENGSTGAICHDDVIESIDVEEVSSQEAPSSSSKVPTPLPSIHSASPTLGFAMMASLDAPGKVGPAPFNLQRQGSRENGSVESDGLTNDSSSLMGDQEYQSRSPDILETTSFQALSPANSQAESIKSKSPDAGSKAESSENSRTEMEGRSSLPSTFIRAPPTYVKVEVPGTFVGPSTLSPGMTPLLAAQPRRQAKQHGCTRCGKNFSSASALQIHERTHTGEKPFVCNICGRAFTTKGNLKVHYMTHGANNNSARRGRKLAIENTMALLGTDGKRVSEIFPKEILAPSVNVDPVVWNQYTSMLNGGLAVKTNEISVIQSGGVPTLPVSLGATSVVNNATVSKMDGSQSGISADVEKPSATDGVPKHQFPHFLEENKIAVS
Notes: 8-mer, flanks averaged, mean of replicates
Strand = CCCAGGTA; value = -0.0759
Strand = CATAGCGC; value = 0.124
Strand = AAACCCGA; value = 0.143
Strand = AGCTATTC; value = 0.0745
Strand = TCATTTAA; value = 0.19
Strand = CCTCACAA; value = -0.021
Strand = AGATGCCA; value = -0.1
Strand = CACCAGGA; value = -0.158
Strand = ACGTCTTG; value = 0.00358
Strand = GGAATGTA; value = 0.0205
Strand = GGGCATTA; value = -0.0698
Strand = GCCGGGGA; value = -0.303
Strand = GTCATCAA; value = 0.0579
Strand = ACATTGAG; value = 0.0335
Strand = CCATTTCC; value = 0.142
Strand = AGACACCC; value = -0.185
Strand = ATCTAGAC; value = -0.0194
Strand = AAACCCAT; value = 0.202
Strand = CGACTTCA; value = -0.0537
Strand = CCAAGCCA; value = -0.123
Strand = AAGGAACA; value = -0.0435
Strand = ACTGTAGA; value = 0.104
Strand = GCACAGCA; value = -0.164
Strand = TACCTACA; value = 0.178
Strand = ATACTTGC; value = 0.198

For quick reference, copied from above (block 1):
Strand = TCACCTGTCCATTCCTTACTGTGCTAG; value = 2.73 z-score
Strand = TTAGATATCGGGTTTCCATTAGTGCTA; value = 1.17 z-score
Strand = GACGTTTTCGGGTATCGGGACGTGCTA; value = 5.77 z-score
Strand = TTAGGTTTTCTTTCCCTTTAGTGCTAG; value = 3.73 z-score
Strand = ATATCTAAAAAGTCTCTGGGAGTGCTA; value = -0.663 z-score
Strand = TTAGGCTTCCTTTTCCTTTAGTGCTAG; value = 1.74 z-score
Strand = CCATTTTGGTTTTCTCTATTGGTGCTA; value = 3.37 z-score
Strand = ACCGCATTCGAATTCAGAATGTGCTAG; value = 2.47 z-score
Strand = GACGGTTTCCTACTGCTAACGTGCTAG; value = 1.88 z-score
Strand = TTAGGACTGGGGACAGGGTTAGTGCTA; value = -0.8 z-score
Strand = TTAGGTCTTCTTTTCCTTTAGTGCTAG; value = 1.75 z-score
Strand = GACGAACTGAGCATCGAGACGTGCTAG; value = -0.0955 z-score
Strand = TTAGATTTCAGGTTCGATTAGTGCTAG; value = 2.01 z-score
Strand = TTAGAACTGAGTTTCTATTAGTGCTAG; value = 0.817 z-score
Strand = TCATGCATGTTTTTGACACTGTGCTAG; value = 1.14 z-score
Strand = GACGAACTGAGTTTCGAGACGTGCTAG; value = 2.06 z-score
